Experimental data gathered from unrelated publications.
Protocols differ between the studies behind these lines. Values joined by “and” are separate records of one study, mostly repeats; a detail may differ.
CDK13 with cyclin K: Cyclin-dependent kinase 13, with cyclin K (CDK13, Homo sapiens, UniProt Q14004)
CDK13: Cyclin-dependent kinase 13 (CDK13, Homo sapiens, UniProt Q14004)

CN1C[C@@H](c2c[nH]c3cc(Br)ccc23)NC[C@@H]1c1c[nH]c2cc(Br)ccc12 — remaining activity (CDK13 with cyclin K; enzyme activity, inhibitor; 10 µM): 89%
CNC(=O)C1CCN(c2cc(C)c(F)cc2NC(=O)c2ccc(-c3cc(O)ccc3C)c(C)c2)CC1 — remaining binding (CDK13; binding, competition with immobilised ligand; 1 µM): 100%
CN1CC[C@@H](COc2cnc(C#N)cc2-c2ccn3nc(NC(=O)C4CC4)cc3c2)C1 — inhibition (CDK13 with cyclin K; enzyme activity, inhibitor; 1 µM): -15%
COc1c(Cl)cccc1Nc1c(-c2ccncc2C#C[C@@]2(C)CCCN2C(=O)/C=C/CN(C)C)[nH]c2c1C(=O)NCC2 — remaining binding (CDK13; binding, competition with immobilised ligand; 3 µM): 95%
CNC1C[S+]2CC[S+]3CC[S+](C1)[Ru-4]321([N]=C=S)[n]2c3ccc(OC)cc3c3c4c(c5cc(F)c[n+]1c5c32)C(=O)NC4=O (centres unmarked) — remaining activity (CDK13; 0.1 µM): 95%
Cc1cnc2nc1Nc1cccc(c1)COC/C=C/COCc1cc(ccc1OCCN1CCOCC1)N2 — remaining signal (CDK13; cell-free assay; 0.1 µM): 76%
Nc1ncc2c(n1)-c1c([nH]c3ccc(C4=CCOCC4)cc13)CCC2 — remaining binding (CDK13; binding, competition with immobilised ligand; 1 µM): 100%
CC(C)=CC1OC(C)(C)C2C=C3C(=O)C(Cl)=CC(O)C3C3C(O)C4OC4C(=O)C132 (centres unmarked) — remaining binding (CDK13; cell-free assay, competition with immobilised ligand; 10 µM): 67%
CCn1cc(C(=O)O)c(=O)c2c(N)c(F)c(NC3CCCCC3)cc21 — inhibition (CDK13 with cyclin K; kinase activity; 0.1 µM, with: ATP at Km): 5.7%
C=CC(=O)N1Cc2nc(-c3cc(-c4cc(Cl)cnc4Cl)c(F)cc3F)n(-c3ccncn3)c2C1 — inhibition (CDK13 with cyclin K; cell-free assay, inhibitor; 1 µM): 5.5%
COc1cc(Nc2nc(C)cc(-c3cnn4nc(OC)ccc34)n2)cc(C(F)(F)F)c1 — remaining activity (CDK13; inhibitor; 1 µM, CDC2L5; reference: control): 100%
Cc1ccc(-c2c(/C=C(\C#N)C(=O)NC(C)C)n(CCCO)c3ncnc(N)c23)cc1 — remaining binding (CDK13; cell-free assay, competition with immobilised ligand; 1 µM): 100%
COc1cc(Nc2nccc(-c3cnn4nc(OC)ccc34)n2)cc(C(F)(F)F)c1 — remaining binding (CDK13; binding, competition with immobilised ligand; 1 µM): 98%
C=CC(=O)N1CCc2ccc(-n3c(=O)ccc4cnc5ccc(-c6cnn(C)c6)cc5c43)cc21 — remaining binding (CDK13; KINOMEscan; 1 µM; reference: DMSO control): 92%
CNC(=O)C[C@H](Cc1ccc(C#N)cc1)NC(=O)c1cc(-c2ccc(CN[C@H](C)c3ccc(C)cc3)o2)ccc1Cl — activity vs control (CDK13 with cyclin K; enzyme activity, inhibitor; 1 µM): 110%
C=CC(=O)N1CCCC(n2c(=O)c3ncccc3n(Cc3ccc(Oc4ccccc4)cc3)c2=O)C1 (centres unmarked) — remaining binding (CDK13; cell-free assay, competition with immobilised ligand; 1 µM): 73%
N[C@H]1CC[C@H](Nc2nccc(-c3cccnc3Oc3ccc(NC(=O)NC4CC4)c4ccccc34)n2)CC1 — log2 LFQ intensity (CDK13; kinobead competition pulldown; HEK293/HCT116 lysate mixture; 10 µM, 1 h, 4 °C; lower = stronger competition): 21.9 and 20.3 and 19.8 and 19.2

Repeated from above:
COc1c(Cl)cccc1Nc1c(-c2ccncc2C#C[C@@]2(C)CCCN2C(=O)/C=C/CN(C)C)[nH]c2c1C(=O)NCC2 — remaining binding (CDK13; binding, competition with immobilised ligand; 3 µM): 95%
CNC1C[S+]2CC[S+]3CC[S+](C1)[Ru-4]321([N]=C=S)[n]2c3ccc(OC)cc3c3c4c(c5cc(F)c[n+]1c5c32)C(=O)NC4=O (centres unmarked) — remaining activity (CDK13; 0.1 µM): 95%
Cc1cnc2nc1Nc1cccc(c1)COC/C=C/COCc1cc(ccc1OCCN1CCOCC1)N2 — remaining signal (CDK13; cell-free assay; 0.1 µM): 76%
